Measured values pooled from the literature.
Parts stem from different laboratories: compare values within a part only. Several values in a cell are separate wells, animals, samples, runs or records.
Chain of UniProt Q9UM73 (whole entry, unmodified, looked up): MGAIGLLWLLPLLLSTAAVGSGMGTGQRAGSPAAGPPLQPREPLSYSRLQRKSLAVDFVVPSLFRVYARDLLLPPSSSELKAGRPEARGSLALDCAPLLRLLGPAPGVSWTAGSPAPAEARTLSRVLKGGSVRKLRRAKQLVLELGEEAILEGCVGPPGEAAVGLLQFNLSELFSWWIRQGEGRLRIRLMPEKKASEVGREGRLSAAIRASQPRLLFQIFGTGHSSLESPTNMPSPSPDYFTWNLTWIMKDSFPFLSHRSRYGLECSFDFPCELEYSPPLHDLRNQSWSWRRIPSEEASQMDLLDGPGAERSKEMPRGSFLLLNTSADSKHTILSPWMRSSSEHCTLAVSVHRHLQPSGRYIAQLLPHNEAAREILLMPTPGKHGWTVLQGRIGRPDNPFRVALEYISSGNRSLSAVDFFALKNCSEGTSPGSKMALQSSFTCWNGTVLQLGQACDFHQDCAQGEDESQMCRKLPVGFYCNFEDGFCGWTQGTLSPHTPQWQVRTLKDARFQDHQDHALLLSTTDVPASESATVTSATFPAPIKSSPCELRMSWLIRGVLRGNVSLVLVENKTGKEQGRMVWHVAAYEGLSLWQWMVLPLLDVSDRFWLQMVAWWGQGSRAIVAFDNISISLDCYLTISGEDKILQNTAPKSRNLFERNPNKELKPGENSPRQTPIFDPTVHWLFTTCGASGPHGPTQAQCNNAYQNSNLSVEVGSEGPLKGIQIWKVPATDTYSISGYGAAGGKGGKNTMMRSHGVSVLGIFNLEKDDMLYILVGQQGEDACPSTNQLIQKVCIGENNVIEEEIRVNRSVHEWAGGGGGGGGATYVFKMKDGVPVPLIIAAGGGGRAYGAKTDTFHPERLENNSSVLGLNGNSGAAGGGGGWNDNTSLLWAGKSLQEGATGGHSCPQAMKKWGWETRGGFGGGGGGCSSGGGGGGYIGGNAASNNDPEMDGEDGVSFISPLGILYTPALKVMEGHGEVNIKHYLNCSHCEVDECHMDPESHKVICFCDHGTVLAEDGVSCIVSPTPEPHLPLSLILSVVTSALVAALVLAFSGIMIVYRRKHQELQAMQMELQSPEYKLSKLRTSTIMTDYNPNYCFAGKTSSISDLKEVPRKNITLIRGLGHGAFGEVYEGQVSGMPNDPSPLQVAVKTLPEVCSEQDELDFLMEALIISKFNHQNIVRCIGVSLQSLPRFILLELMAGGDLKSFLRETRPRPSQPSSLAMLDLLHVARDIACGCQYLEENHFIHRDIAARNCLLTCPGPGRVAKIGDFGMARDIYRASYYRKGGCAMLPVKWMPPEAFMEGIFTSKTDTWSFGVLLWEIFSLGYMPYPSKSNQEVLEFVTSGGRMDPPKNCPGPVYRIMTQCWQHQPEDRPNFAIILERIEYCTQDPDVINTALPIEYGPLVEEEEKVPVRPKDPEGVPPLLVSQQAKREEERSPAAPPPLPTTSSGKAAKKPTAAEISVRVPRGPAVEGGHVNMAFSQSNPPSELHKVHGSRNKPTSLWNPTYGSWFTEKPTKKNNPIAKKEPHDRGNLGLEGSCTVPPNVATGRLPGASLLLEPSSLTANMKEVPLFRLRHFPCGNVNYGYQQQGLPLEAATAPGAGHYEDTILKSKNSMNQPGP
Chain of UniProt Q6XUX3 (whole entry, looked up): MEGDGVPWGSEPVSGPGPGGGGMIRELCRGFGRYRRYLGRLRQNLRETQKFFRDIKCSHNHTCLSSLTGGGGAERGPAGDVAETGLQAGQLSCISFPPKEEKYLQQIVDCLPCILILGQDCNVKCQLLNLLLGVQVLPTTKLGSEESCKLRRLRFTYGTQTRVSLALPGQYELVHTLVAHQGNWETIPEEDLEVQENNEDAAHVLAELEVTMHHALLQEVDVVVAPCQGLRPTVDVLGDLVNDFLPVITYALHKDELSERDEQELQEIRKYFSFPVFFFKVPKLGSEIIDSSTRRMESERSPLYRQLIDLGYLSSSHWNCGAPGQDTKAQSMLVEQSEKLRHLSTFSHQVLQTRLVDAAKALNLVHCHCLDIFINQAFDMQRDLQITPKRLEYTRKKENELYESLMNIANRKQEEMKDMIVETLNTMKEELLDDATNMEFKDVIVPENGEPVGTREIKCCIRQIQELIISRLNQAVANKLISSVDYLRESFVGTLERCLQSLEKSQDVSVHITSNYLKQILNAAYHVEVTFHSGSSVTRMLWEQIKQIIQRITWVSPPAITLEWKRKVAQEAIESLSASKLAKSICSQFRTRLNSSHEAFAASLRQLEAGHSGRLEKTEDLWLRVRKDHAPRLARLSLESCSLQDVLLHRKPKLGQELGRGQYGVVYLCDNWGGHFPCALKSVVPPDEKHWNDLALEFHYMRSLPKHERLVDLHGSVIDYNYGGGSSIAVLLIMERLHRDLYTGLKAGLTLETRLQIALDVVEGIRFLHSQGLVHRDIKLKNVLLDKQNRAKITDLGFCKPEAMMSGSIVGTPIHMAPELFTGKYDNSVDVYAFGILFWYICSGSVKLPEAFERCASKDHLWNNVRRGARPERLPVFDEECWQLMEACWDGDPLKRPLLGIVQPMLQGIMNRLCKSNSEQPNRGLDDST
Chain of UniProt Q6DT37 (whole entry, looked up): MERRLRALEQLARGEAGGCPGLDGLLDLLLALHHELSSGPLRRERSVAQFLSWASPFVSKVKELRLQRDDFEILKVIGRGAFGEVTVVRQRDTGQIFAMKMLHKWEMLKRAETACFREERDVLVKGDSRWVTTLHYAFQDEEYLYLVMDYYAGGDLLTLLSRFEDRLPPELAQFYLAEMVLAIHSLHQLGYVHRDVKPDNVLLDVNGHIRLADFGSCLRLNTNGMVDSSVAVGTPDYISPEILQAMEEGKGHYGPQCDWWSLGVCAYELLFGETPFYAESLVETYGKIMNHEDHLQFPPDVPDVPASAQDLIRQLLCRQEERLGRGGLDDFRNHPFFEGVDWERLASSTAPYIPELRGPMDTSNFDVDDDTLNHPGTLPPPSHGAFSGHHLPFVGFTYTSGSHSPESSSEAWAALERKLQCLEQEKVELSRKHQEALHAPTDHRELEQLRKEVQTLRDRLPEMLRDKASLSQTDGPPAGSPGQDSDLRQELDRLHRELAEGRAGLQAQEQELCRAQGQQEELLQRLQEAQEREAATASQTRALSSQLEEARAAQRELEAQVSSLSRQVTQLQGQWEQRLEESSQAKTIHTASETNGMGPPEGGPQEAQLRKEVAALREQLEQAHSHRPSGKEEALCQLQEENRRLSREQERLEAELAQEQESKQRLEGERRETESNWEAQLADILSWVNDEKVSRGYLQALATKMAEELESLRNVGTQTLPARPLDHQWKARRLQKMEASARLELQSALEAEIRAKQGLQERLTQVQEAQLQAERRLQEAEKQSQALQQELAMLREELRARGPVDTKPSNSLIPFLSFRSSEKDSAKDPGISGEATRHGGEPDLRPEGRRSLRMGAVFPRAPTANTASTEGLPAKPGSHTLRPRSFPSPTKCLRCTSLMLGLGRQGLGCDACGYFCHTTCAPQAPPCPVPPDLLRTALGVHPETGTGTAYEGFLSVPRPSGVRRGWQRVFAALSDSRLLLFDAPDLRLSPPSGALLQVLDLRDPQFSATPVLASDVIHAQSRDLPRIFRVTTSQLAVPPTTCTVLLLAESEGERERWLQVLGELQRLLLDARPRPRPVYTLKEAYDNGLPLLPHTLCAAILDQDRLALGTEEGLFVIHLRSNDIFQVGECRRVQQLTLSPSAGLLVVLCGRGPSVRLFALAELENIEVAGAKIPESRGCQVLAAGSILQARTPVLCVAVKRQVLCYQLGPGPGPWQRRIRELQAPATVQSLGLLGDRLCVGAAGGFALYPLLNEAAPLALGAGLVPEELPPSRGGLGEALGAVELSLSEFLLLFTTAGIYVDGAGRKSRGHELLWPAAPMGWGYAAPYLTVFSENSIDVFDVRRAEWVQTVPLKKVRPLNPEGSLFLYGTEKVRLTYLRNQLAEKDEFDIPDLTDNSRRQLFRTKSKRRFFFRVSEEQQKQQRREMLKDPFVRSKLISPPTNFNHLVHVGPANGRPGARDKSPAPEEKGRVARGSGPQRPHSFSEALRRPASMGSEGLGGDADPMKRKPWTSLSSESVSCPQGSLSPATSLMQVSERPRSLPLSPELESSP
Chain of UniProt Q96Q40 (whole entry, looked up): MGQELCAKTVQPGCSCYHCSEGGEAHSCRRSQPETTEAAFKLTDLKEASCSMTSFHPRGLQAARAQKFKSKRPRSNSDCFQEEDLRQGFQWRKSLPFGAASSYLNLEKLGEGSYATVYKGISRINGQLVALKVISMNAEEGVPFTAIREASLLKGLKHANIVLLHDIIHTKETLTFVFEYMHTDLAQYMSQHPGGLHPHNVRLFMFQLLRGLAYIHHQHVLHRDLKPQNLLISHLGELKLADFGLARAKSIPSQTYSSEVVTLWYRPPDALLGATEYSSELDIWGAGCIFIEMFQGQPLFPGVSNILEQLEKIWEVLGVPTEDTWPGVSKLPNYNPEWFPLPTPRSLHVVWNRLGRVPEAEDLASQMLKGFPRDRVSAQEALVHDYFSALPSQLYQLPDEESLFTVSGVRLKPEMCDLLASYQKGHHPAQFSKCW
Chain of UniProt Q8IW41 (whole entry, looked up): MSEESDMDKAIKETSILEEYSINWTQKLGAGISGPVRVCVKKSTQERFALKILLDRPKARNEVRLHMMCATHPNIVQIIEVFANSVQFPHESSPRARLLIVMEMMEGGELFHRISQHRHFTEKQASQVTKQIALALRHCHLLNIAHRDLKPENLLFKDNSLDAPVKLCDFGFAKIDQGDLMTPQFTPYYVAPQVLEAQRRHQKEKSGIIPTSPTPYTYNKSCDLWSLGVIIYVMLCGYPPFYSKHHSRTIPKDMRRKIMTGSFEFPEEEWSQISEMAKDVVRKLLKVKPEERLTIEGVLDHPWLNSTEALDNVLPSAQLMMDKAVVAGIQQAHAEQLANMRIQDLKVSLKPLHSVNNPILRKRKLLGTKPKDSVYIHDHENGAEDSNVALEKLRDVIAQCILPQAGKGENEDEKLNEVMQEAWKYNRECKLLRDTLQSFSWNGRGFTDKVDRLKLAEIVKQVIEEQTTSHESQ

Series 1
SMILES: NS(=O)(=O)c1cc(NC(=O)C2(c3ccccc3Cl)CC2)ccc1Oc1cccc(Cl)c1
Method: competition with immobilised ligand
Concentration: 1 µM
Quantity: remaining binding
Activin receptor type-2A (ACVR2A, Homo sapiens, UniProt P27037); cell-free assay: 96%
Macrophage colony-stimulating factor 1 receptor, autoinhibited (CSF1R, Homo sapiens, UniProt P07333); cell-free assay: 100%
Dual specificity mitogen-activated protein kinase kinase 6 (MAP2K6, Homo sapiens, UniProt P52564); cell-free assay: 96%
Myosin-IIIb (MYO3B, Homo sapiens, UniProt Q8WXR4); binding: 29%
Discoidin domain-containing receptor 2 (DDR2, Homo sapiens, UniProt Q16832); cell-free assay: 96%
MAP kinase-activated protein kinase 5 (MAPKAPK5, Homo sapiens, UniProt Q8IW41); cell-free assay: 89%
Cyclin-G-associated kinase (GAK, Homo sapiens, UniProt O14976); cell-free assay: 76%
Mast/stem cell growth factor receptor Kit (KIT, Homo sapiens, UniProt P10721, D816H); cell-free assay: 86%
Casein kinase I isoform epsilon (CSNK1E, Homo sapiens, UniProt P49674); cell-free assay: 64%
Vascular endothelial growth factor receptor 1 (FLT1, Homo sapiens, UniProt P17948); cell-free assay: 100%
Epidermal growth factor receptor (EGFR, Homo sapiens, UniProt P00533, A750P/del747-749); cell-free assay: 96%
Myosin-IIIa (MYO3A, Homo sapiens, UniProt Q8NEV4); binding: 93%
Serine/threonine-protein kinase Nek7 (NEK7, Homo sapiens, UniProt Q8TDX7); cell-free assay: 90%
Dual serine/threonine and tyrosine protein kinase (DSTYK, Homo sapiens, UniProt Q6XUX3); cell-free assay: 93%
Aurora kinase A (AURKA, Homo sapiens, UniProt O14965); cell-free assay: 100%
Cyclin-dependent kinase-like 2 (CDKL2, Homo sapiens, UniProt Q92772); binding: 94%
ALK tyrosine kinase receptor (ALK, Homo sapiens, UniProt Q9UM73, C1156Y); cell-free assay: 100%
Serine/threonine-protein kinase RIO3 (RIOK3, Homo sapiens, UniProt O14730); cell-free assay: 73%
Cyclin-dependent kinase 15 (CDK15, Homo sapiens, UniProt Q96Q40); cell-free assay: 98%
Activin receptor type-2B (ACVR2B, Homo sapiens, UniProt Q13705); binding: 90%
Proto-oncogene tyrosine-protein kinase receptor Ret (RET, Homo sapiens, UniProt P07949, M918T); cell-free assay: 71%
Serine/threonine-protein kinase TNNI3K (TNNI3K, Homo sapiens, UniProt Q59H18); cell-free assay: 72%
Serine/threonine-protein kinase N2 (PKN2, Homo sapiens, UniProt Q16513); cell-free assay: 83%
Calcium/calmodulin-dependent protein kinase type II subunit beta (CAMK2B, Homo sapiens, UniProt Q13554); cell-free assay: 100%
Leukocyte tyrosine kinase receptor (LTK, Homo sapiens, UniProt P29376); cell-free assay: 73%

Series 2
Organism: Sarcocystis neurona
Read-out: parasite growth
Concentration: 10 µM
Setting: secondary screen
Quantity: inhibition
CC[C@]1(O)C[C@@H]2CN(CCc3c([nH]c4ccccc34)[C@@](C(=O)OC)(c3cc4c(cc3OC)N(C)[C@H]3[C@@](O)(C(N)=O)[C@H](O)[C@]5(CC)C=CCN6CC[C@]43[C@@H]65)C2)C1: -2.9%
CC(C)(C)NC[C@H](O)COc1nsnc1N1CCOCC1: -41.5%
CCOC(=O)C1=C(C)NC(C)=C(C(=O)OC)C1c1cccc(Cl)c1Cl (stereo not drawn): -40.5%
COc1cccc2c1C(=O)c1c(O)c3c(c(O)c1C2=O)C[C@@](O)(C(=O)CO)C[C@@H]3O[C@H]1C[C@H](N)[C@@H](O)[C@H](C)O1: 68.3%

Series 3
Host: human
Sample: microsomes or S9
Concentration: 2 µM
Time: 0.5 h
Quantity: remaining compound
CC(C)(C)OC(=O)N1CCN(Cc2nc(-c3ccco3)n[nH]2)CC1: 85%
CCc1nccn1-c1cc(C)nc2c(-c3ccc(Cl)cc3)cnn12: > 100%
COc1cc(Cl)c(C)cc1NC(=O)Cn1ncc2c(N3CCN(c4ccccn4)CC3)ncnc21: 36.1%

Series 4
Compound: COc1ccc(-c2c(Nc3ccccn3)[nH]c3c(C4=CCCCC4)c(-c4ccccc4)nn3c2=O)cc1
Host: human
Sample: plasma
Route: oral
Quantity: MRT(0-inf) observed
LC-MS/MS non-compartmental; 50 mg once daily, cycle 1: 63.7 h
LC-MS/MS non-compartmental; 200 mg twice daily, cycle 1: 212 h
400 mg once daily: 26.1 h and 32.6 h and 14.8 h and 33 h

Series 5
Method: PRP chromatography
Setting: linear fit, 1 mL
Quantity: logD 1,9-decadiene/water
CC(C)C[C@@H]1NC(=O)[C@@H](C)NC(=O)[C@H](CCC(=O)N2CCCC2)NC(=O)[C@@H](C(C)C)NC(=O)[C@H](C)NC(=O)[C@H](CC(C)C)NC(=O)[C@@H](CC(C)C)NC1=O: -4.39 log units
CC(C)C[C@@H]1NC(=O)[C@H](CC(C)C)NC(=O)[C@H](CC(C)C)NC(=O)[C@H](C(C)C)NC(=O)[C@@H](Cc2cscn2)NC(=O)[C@@H](CC(C)C)NC(=O)[C@H](C)NC1=O: -2.73 log units
CC(C)C[C@@H]1NC(=O)[C@H](CCC(=O)N2CCCC2)NC(=O)[C@H](CC(C)C)NC(=O)[C@@H](CCC(=O)N2CCCC2)NC(=O)[C@H](CC(C)C)NC(=O)[C@@H](CC(C)C)NC(=O)[C@H](CC(C)C)NC1=O: -0.358 log units

Series 6
Structure (SMILES): COc1ccc2[nH]c3c4[nH]c5ccc(OC)cc5c4c4c(c3c2c1)C(=O)NC4=O
Quantity: remaining binding
Serine/threonine-protein kinase MRCK gamma (CDC42BPG, Homo sapiens, UniProt Q6DT37); DiscoverX cell-free binding; 1000 nM: 84%
Ribosomal protein S6 kinase alpha-1, N-terminal kinase domain (RPS6KA1, Homo sapiens, UniProt Q15418); binding, competition with immobilised ligand; 1 µM: 49%
Cyclin-dependent kinase-like 1 (CDKL1, Homo sapiens, UniProt Q00532); binding; 1 µM: 75%

Series 7
Cell line: HaCaT
Concentration: 100 µM
Time: 36 h
Quantity: viability
CCN(CCCc1ccccc1)CCCc1ccccc1: 4.6%
CN1CCN(C2=Nc3ccccc3Oc3ccc(Cl)cc32)CC1: 7.59%
COc1c(N2CCNC(C)C2)c(F)cc2c(=O)c(C(=O)O)cn(C3CC3)c12 (stereo not drawn): 88%
COC(=O)[C@@H]1[C@H]2C[C@H]3c4[nH]c5ccccc5c4CCN3C[C@@H]2CC[C@@H]1O: 59.6%

Series 8
Compound: CC(=O)N[C@@H](Cc1c[nH]c2ccccc12)C(=O)N[C@@H](CCC(=O)C=[N+]=[N-])C(=O)OC(C)C
Sample: EL4 tumour
Dose: dose not given
Reference: vehicle
Quantity: log2 fold change
item: UDP-glucuronate; mouse, EL4 tumour-bearing: -0.124
item: ribonate; mouse, EL4 tumour-bearing: -0.413
item: cysteine-glutathione disulfide; Mus musculus: 2.06

Series 9
Structure (SMILES): Ic1ccc(Nc2nc(NCCN3CCOCC3)nc(N3CCOCC3)n2)cc1
Cell line: HEK293T ATF4-firefly luciferase reporter
Read-out: integrated stress response
Item: ATF4
Reference: DMSO
Quantity: reporter signal
10 µM, without ISRIB: 147% and 142% and 131% and 158% and 129% and 125% and 145%
10 µM, added: ISRIB: 94.2% and 117% and 88.1% and 91.6% and 106% and 93% and 81.8% and 126%
1 µM, without ISRIB: 101% and 107% and 120% and 94.3% and 121% and 94.4% and 91.9%

For quick reference, copied from above (series 1):
Cyclin-G-associated kinase (GAK, Homo sapiens, UniProt O14976); cell-free assay: 76%
Leukocyte tyrosine kinase receptor (LTK, Homo sapiens, UniProt P29376); cell-free assay: 73%
Casein kinase I isoform epsilon (CSNK1E, Homo sapiens, UniProt P49674); cell-free assay: 64%
ALK tyrosine kinase receptor (ALK, Homo sapiens, UniProt Q9UM73, C1156Y); cell-free assay: 100%
Serine/threonine-protein kinase TNNI3K (TNNI3K, Homo sapiens, UniProt Q59H18); cell-free assay: 72%
